Assay results pooled from the literature.
Each line is one published result; not all experiments were run side by side.
Method: steady-state kinetics
B1: enzyme (Acinetobacter baumannii, UniProt D0CBC8); chain MALVLDGRALAKQIEENLLVRVEALKAKTGRTPILATILVGDDGASATYVRMKGNACRRVGMDSLKIELPQETTTEQLLAEIEKLNANPDVHGILLQHPVPAQIDERACFDAISLAKDVDGVTCLGFGRMAMGEAAYGSATPAGIMTILKENNIEIAGKHAVVVGRSAILGKPMAMMLLQANATVTICHSRTQNLPELVKQADIIVGAVGKAELIQKDWIKQGAVVVDAGFHPRDGGGVGDIQLQGIEEIASAYTPVPGGVGPMTITTLIRQTVEAAEKALG
B2: protein G95D/P94L (Streptomyces coelicolor, UniProt P16544); chain MATQDSEVALVTGATSGIGLEIARRLGKEGLRVFVCARGEEGLRTTLKELREAGVEADGRTCDVRSVPEIEALVAAVVERYGPVDVLVNNAGRLDGGATAELADELWLDVVETNLTGVFRVTKQVLKAGGMLERGTGRIVNIASTGGKQGVVHAAPYSASKHGVVGFTKALGLELARTGITVNAVCPGFVETPMAASVREHYSDIWEVSTEEAFDRITARVPIGRYVQPSEVAEMVAYLIGPGAAAVTAQALNVCGGLGNY
B3: enzyme (Arabidopsis thaliana, UniProt Q949Q0); chain MAASVQPACLDLHFSGKHPPLLKHNAIIVRCVSSPNVIPEADSISGPPDIINTNRDQRKVVRIAWEKLVRWSRSLRAKAKTDVLERTRKVVVLGGGSFGTAMAAHVARRKEGLEVNMLVRDSFVCQSINENHHNCKYFPEHKLPENVIATTDAKAALLDADYCLHAVPVQFSSSFLEGIADYVDPGLPFISLSKGLELNTLRMMSQIIPIALKNPRQPFVALSGPSFALELMNNLPTAMVVASKDKKLANAVQQLLASSYLRINTSSDVTGVEIAGALKNVLAIAAGIVDGMNLGNNSMAALVSQGCSEIRWLATKMGAKPTTITGLSGTGDIMLTCFVNLSRNRTVGVRLGSGETLDDILTSMNQVAEGVATAGAVIALAQKYNVKLPVLTAVAKIIDNELTPTKAVLELMNLPQIEEV
B4: TylM1 H123N (Streptomyces fradiae, UniProt P95748); chain MAHSSATAGPQADYSGEIAELYDLVHQGKGKDYHREAADLAALVRRHSPKAASLLDVACGTGMHLRHLADSFGTVEGLELSADMLAIARRRNPDAVLHHGDMRDFSLGRRFSAVTCMFSSIGNLAGQAELDAALERFAAHVLPDGVVVVEPWWFPENFTPGYVAAGTVEAGGTTVTRVSHSSREGEATRIEVHYLVAGPDRGITHHEESHRITLFTREQYERAFTAAGLSVEFMPGGPSGRGLFTGLPGAKGETR
B5: KS (Arabidopsis thaliana, UniProt Q9SAK2); chain ANNVSFEQTKEKIRKMLEKVELSVSAYDTSWVAMVPSPSSQNAPLFPQCVKWLLDNQHEDGSWGLDNHDHQSLKKDVLSSTLASILALKKWGIGERQINKGLQFIELNSALVTDETIQKPTGFDIIFPGMIKYARDLNLTIPLGSEVVDDMIRKRDLDLKCDSEKFSKGREAYLAYVLEGTRNLKDWDLIVKYQRKNGSLFDSPATTAAAFTQFGNDGCLRYLCSLLQKFEAAVPSVYPFDQYARLSIIVTLESLGIDRDFKTEIKSILDETYRYWLRGDEEICLDLATCALAFRLLLAHGYDVSYDPLKPFAEESGFSDTLEGYVKNTFSVLELFKAAQSYPHESALKKQCCWTKQYLEMELSSWVKTSVRDKYLKKEVEDALAFPSYASLERSDHRRKILNGSAVENTRVTKTSYRLHNICTSDILKLAVDDFNFCQSIHREEMERLDRWIVENRLQELKFARQKLAYCYFSGAATLFSPELSDARISWAKGGVLTTVVDDFFDVGGSKEELENLIHLVEKWDLNGVPEYSSEHVEIIFSVLRDTILETGDKAFTYQGRNVTHHIVKIWLDLLKSMLREAEWSSDKSTPSLEDYMENAYISFALGPIVLPATYLIGPPLPEKTVDSHQYNQLYKLVSTMGRLLNDIQGFKRESAEGKLNAVSLHMKHERDNRSKEVIIESMKGLAERKREELHKLVLEEKGSVVPRECKEAFLKMSKVLNLFYRKDDGFTSNDLMSLVKSVIYEPVSLQEESLT
B6: protein (UniProt A0A4Y6I1F8); chain MGSEVVSKKHEFGALEVEGIDFRASVAALGSTKKLVLGGAGFRGLEINGNLVKFTAIGIYVEEAIIPHLSPKLGGKTVEELCANELLFEEVLSAPFDKLIRVVFLLPLTGPQYSEKVVERIGLLPNPGLKEESIKQFLEIFKAENFPPRTSLVCSFTEDGLKIAFMKGPDFPEESDAVIEDKYFARAFLATIIAKDGVSPMAKLSFAERVSKYL
B7: protein (UniProt M4ZR24); chain MNEIGTTWAEGTSERVIRLLTDKRAGRPMSGPDIEGLVKDFTAGSVPDYQMASWLATVACAGLSAEELTALTAAYVDSGERLSLSSSRRPVADKHSTGGVGDKTTLVVAPVVAACGIGVGKVTGRGLGFMGGTVDKLESIPGLDLELSGSALSAQVADLGLAVTGQSPSLVPGDRMTYALRDVTGTVDSIPLIAASIMSKNTKGIAVRCNSIVLDVKYGDGAVLPDRAVATELARTMLELGRSFDLPTTAVISSMEQPLGYAVGNGLEVREAIIALSGTYVEDLTELAITISALMISTADSAVDHDRARDRVREVLSDGSALRMFRAFVARQGGDVGFVDDPSRLETAPHRLVVTATEAGHVARIAARRIGEAALRVGAGRLVYGAPIDHGAGIVLSRRIGDSVAEGEPLATLHGSDYDQLESLADVVRGCFDISERPPGRPDVIVDVLRQGDAG
B8: MCAT R178A (Homo sapiens, UniProt Q8IVS2); chain GQGSQVVGMGRGLLNYPRVRELYAAARRVLGYDLLELSLHGPQETLDRTVHCQPAIFVASLAAVEKLHHLQPSVIENCVAAAGFSVGEFAALVFAGAMEFAEGLYAVKIAAEAMQEASEAVPSGMLSVLGQPQSKFNFACLEAREHCKSLGIENPVCEVSNYLFPDCRVISGHQEALRFLQKNSSKFHFRRTRMLPVSGAFHTRLMEPAVEPLTQALKAVDIKKPLVSVYSNVHAHRYRHPGHIHKLLAQQLVSPVKWEQTMHAIYERKKGRGFPQTFEVGPGRQLGAILKSCNMQAWKSYSAVDVL
B9: enzyme (Coprinopsis marcescibilis, UniProt A0A5C3KD26); chain FPQYGSLGGLEARQEEEATRGSTSTSGPRSRVPPPPPAPPRFTGAKLVDDRDHPWRPLRNGDIRGPCPGLNTLASHGYLPRDGVASPSDIIKAVQEGFNMETQTARFATYSAHILEGNLVTDLLSIGGKTSRTGPNPPPPATVAGISNHGSFEGDASLTRIDAFFGNHVAFNQPLFDQFVDFSNRFGNGFYNYTVGGELRFHRIQQSIETNPQFRIRGFRHFTAYAEAAFTANLFVDGRKTGADAHQLDMDSARSFFRDMRFPRGFFRPSSPTAGEGADIIFAAHPTQPGTNVGAVNNFVVDTSMGGLTDPCTFYVQFVNTTVRALYPNPTGVLRRNLIINLGFLYDSFAPPDCPQVFPYGQN
B10: BshA S17A (Bacillus subtilis, UniProt P42982); chain MRKLKIGITCYPSVGGAGIIATELGKQLAEKGHEIHFITSSIPFRLNTYHPNIHFHEVEVNQYAVFKYPPYDLTLASKIAEVAERENLDIIHAHYALPHAVCAYLAKQMLKRNIGIVTTLHGTDITVLGYDPSLKDLIRFAIESSDRVTAVSSALAAETYDLIKPEKKIETIYNFIDERVYLKKNTAAIKEKHGILPDEKVVIHVSNFRKVKRVQDVIRVFRNIAGKTKAKLLLVGDGPEKSTACELIRKYGLEDQVLMLGNQDRVEDLYSISDLKLLLSEKESFGLVLLEAMACGVPCIGTNIGGIPEVIKNNVSGFLVDVGDVTAATARAMSILEDEQLSNRFTKAAIEMLENEFSSKKIVSQYEQIYADLAEPE
B11: Paox H64A (Mus musculus, UniProt Q8C0L6); chain MAFPGPRVLVVGSGIAGLGAAQKLCSHRAAPHLRVLEATASAGGRIRSERCFGGVVELGAHWIAGPSQDNPVFQLAAEFGLLGEKELSEENQLVDTGGHVALPSMIWSSSGTSVSLELMTEMARLFYGLIERTREFLNESETPMASVGEFLKKEISQQVASWTEDDEDTRKRKLAILNTFFNIECCVSGTHSMDLVALAPFGEYTVLPGLDCILAGGYQGLTDRILASLPKDTVAFDKPVKTIHWNGSFQEAAFPGETFPVLVECEDGARLPAHHVIVTVPLGFLKEHQDTFFEPPLPAKKAEAIKKLGFGTNNKIFLEFEEPFWEPDCQFIQVVWEDTSPLQDTALSLQDTWFKKLIGFLVQPSFESSHVLCGFIAGLESEFMETLSDEEVLLSLTQVLRRVTGNPQLPAAKSVRRSQWHSAPYTRGSYSYVAVGSTGDDLDLMAQPLPEDGTGTQLQVLFAGEATHRTFYSTTHGALLSGWREADRLVSLWDSQVEQSRPRL
UniProt P60560, sequence (whole entry, looked up): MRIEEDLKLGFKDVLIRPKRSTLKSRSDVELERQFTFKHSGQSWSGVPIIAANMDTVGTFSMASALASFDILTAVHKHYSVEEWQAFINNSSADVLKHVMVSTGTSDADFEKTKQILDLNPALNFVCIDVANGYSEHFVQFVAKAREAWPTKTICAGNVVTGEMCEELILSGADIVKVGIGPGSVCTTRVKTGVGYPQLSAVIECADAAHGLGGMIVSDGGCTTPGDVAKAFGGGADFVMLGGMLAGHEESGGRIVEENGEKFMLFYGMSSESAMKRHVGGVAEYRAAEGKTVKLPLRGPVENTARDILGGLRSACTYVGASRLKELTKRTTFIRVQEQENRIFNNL
UniProt O60656, sequence (whole entry, looked up): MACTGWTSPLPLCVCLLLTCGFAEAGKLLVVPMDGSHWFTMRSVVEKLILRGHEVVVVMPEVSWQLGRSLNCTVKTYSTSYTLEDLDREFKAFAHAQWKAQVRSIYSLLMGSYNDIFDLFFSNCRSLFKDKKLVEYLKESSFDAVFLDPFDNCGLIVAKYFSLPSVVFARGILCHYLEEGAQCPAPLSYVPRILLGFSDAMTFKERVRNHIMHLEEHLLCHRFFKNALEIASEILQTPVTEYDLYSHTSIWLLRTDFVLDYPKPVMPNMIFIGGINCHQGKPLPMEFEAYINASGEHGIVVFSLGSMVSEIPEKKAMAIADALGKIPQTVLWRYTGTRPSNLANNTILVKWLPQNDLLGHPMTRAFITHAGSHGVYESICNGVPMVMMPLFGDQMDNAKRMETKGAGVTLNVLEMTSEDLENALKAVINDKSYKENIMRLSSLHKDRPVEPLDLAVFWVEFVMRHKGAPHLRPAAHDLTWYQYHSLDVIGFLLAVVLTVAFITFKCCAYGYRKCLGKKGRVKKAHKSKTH

| Substance | substrate | setting | Km [µM] |
| --- | --- | --- | --- |
| guaC (Escherichia coli, UniProt P60560) | Nc1nc2c(ncn2[C@@H]2O[C@H](COP(=O)(O)O)[C@@H](O)[C@H]2O)c(=O)[nH]1 |  | 3.2 |
| B1 (enzyme) | Nc1nc2c(c(=O)[nH]1)N1CN(c3ccc(C(=O)N[C@@H](CCC(=O)O)C(=O)O)cc3)C[C@H]1CN2 | pH 7.3, 27 °C | 26.8 |
| B2 (protein G95D/P94L) | O[C@H]1CCCc2ccccc21 | pH 7.4, phosphate 400 mM, NADPH 250 µM printed, with: NADP+, reverse reaction | 8700 |
| B3 (enzyme) | O=C(CO)COP(=O)(O)O | pH 7.2, 30 °C, apparent | 0.33 |
| B4 (TylM1 H123N) | Cc1cn([C@H]2C[C@H](O)[C@@H](COP(=O)(O)OP(=O)(O)O[C@H]3O[C@H](C)[C@@H](O)[C@H](N)[C@H]3O)O2)c(=O)[nH]c1=O | 25 °C, with: SAM | 930 |
| B5 (KS) | C=C1CC[C@@H]2C(C)(C)CCC[C@@]2(C)[C@@H]1CC/C(C)=C/COP(=O)(O)OP(=O)(O)O | pH 7.2, 30 °C, GGPP-derived substrate | 8 |
| B6 (protein) | O=C(/C=C/c1ccc(O)cc1)c1c(O)cc(O)cc1O |  | 99.6 |
| UGT1A9 (Homo sapiens, UniProt O60656) | O=c1oc2cc(O)ccc2c(-c2ccccc2)c1-c1ccccc1 | pH 7.4, 37 °C | 3.37 |
| B7 (protein) | O=c1ccn([C@H]2C[C@H](O)[C@@H](CO)O2)c(=O)[nH]1 | phosphorolysis, single substrate, with: phosphate | 1800 |
| B8 (MCAT R178A) | CC(C)(COP(=O)(O)OP(=O)(O)OC[C@H]1O[C@@H](n2cnc3c(N)ncnc32)[C@H](O)[C@@H]1OP(=O)(O)O)[C@@H](O)C(=O)NCCC(=O)NCCSC(=O)CC(=O)O | pH 6.8, 20 °C, labelled substrate, with: holo-ACP 20 µM | 1060 |
| B9 (enzyme) | O=[N+]([O-])c1ccc2c(c1)OCO2 |  | 241 |
| B10 (BshA S17A) | O=C(O)C[C@H](O)C(=O)O | pH 7.5, 21 °C, with: UDP-GlcNAc 0–4 mM | 10000 |
| B11 (Paox H64A) | c1ccc(CNCCCCNCc2ccccc2)cc1 | pH 8.6, 30 °C | 270 |
